Assay results collected from several papers.
Each numbered part is a random draw from the data of one study; scales do not carry over between parts.
Chain of UniProt P62344 (whole entry, looked up): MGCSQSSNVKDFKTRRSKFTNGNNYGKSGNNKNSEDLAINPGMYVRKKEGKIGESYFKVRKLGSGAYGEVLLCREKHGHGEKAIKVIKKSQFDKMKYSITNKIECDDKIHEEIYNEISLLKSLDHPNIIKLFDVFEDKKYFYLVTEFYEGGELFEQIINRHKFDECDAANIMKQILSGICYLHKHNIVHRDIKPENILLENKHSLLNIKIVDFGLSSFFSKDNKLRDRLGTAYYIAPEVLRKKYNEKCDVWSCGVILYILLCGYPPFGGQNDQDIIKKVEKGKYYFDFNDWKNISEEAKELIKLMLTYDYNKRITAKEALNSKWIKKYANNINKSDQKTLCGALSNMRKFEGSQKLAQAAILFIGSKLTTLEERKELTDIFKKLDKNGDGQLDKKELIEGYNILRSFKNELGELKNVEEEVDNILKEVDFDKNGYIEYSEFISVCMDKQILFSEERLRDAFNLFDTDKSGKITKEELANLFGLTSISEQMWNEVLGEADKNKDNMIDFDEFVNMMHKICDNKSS
Chain of UniProt P28223 (whole entry, looked up): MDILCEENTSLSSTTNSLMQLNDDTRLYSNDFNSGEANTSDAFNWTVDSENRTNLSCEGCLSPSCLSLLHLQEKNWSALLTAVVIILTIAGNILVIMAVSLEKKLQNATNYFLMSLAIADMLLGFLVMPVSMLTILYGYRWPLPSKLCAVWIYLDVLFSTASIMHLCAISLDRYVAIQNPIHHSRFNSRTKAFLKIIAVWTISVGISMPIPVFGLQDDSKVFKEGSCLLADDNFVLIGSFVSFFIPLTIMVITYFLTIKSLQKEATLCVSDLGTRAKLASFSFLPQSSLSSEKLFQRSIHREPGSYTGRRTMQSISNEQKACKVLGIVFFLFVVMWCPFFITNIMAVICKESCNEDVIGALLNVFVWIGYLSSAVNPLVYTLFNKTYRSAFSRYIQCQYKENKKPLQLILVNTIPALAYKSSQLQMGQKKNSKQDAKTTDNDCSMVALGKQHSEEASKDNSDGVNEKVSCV
Chain of UniProt Q9UQM7 (whole entry, looked up): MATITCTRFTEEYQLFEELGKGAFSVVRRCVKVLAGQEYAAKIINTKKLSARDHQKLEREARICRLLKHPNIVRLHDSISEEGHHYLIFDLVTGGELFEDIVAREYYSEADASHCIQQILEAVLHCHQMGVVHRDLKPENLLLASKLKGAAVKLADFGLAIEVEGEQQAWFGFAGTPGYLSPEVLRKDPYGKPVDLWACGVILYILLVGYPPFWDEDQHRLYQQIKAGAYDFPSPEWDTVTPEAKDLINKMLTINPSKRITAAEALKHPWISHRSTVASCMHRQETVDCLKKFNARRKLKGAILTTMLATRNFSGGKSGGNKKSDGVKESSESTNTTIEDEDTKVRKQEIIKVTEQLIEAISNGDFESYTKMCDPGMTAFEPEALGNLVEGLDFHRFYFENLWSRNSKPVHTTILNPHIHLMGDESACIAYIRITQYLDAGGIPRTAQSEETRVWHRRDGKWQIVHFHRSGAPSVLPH
Chain of UniProt P14416 (whole entry, looked up): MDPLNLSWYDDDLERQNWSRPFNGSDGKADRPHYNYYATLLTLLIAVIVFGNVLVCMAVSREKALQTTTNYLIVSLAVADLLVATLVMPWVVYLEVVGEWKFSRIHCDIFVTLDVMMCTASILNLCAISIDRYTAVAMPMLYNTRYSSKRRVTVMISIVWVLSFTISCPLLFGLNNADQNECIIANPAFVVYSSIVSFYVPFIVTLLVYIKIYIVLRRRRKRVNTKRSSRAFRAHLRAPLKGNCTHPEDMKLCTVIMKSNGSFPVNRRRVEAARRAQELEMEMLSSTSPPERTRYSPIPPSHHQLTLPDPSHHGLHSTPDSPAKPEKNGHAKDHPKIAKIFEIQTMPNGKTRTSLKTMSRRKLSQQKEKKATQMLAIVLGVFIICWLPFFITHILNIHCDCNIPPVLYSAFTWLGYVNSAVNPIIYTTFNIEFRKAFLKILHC
Chain of UniProt P08908 (whole entry, looked up): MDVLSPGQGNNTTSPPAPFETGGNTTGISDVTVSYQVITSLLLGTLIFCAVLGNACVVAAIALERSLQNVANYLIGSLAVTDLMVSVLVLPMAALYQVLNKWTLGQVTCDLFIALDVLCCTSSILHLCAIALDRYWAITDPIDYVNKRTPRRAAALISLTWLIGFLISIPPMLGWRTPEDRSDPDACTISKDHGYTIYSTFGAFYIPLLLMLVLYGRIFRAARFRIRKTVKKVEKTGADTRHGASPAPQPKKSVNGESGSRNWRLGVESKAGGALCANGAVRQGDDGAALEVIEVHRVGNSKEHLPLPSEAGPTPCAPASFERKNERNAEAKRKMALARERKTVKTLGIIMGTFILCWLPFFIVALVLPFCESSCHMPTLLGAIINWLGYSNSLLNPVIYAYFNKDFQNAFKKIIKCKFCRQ

Sample 1
Organism: Plasmodium berghei
Action: inhibitor
Cells: Huh-7
Strain: GFP-expressing sporozoites, liver stage
Concentration: 10 µM
Time: 24 h
Baseline: untreated control
| Compound | infection rate [%] |
| --- | --- |
| CCCC(C)(COC(N)=O)COC(=O)NC(C)C (centres unmarked) | 109 |
| COC(=O)C1=CCCN(C)C1 | 99.2 |
| C[C@]12CCC(=O)C=C1C=C[C@@H]1[C@@H]2CC[C@@]2(C)[C@H]1CC[C@@]2(O)CCC(=O)O | 576 |
| CCC1(c2ccc(N)cc2)CCC(=O)NC1=O (centres unmarked) | 91.7 |
| O=C1CCO1 | 91.2 |

Sample 2
Target: Eukaryotic initiation factor 4A-III (Homo sapiens, UniProt P38919)
Chain of UniProt P38919 (whole entry, looked up): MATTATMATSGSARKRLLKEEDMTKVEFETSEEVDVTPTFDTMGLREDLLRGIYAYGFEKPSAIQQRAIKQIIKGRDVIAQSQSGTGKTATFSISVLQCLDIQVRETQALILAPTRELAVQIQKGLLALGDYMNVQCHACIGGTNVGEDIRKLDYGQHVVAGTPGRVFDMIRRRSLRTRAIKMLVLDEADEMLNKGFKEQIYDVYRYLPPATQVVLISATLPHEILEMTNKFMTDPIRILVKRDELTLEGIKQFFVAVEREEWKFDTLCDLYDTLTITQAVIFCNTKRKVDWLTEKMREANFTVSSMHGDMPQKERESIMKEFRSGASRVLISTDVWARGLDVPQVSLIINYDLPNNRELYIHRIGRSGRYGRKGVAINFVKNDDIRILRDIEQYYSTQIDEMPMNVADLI
Effect on: RNA clamping
Method: fluorescence polarization
Concentration: concentration not given
Together with: FAM-labelled poly r(AG)8 RNA
| SMILES | fluorescence polarization change |
| --- | --- |
| [2H]C([2H])([2H])C1=N[C@@]2(O)[C@H](C(=O)OC)[C@@H](c3ccccc3)[C@]3(c4ccc(OC)cc4)Oc4cc(OC)cc(OC)c4[C@]23N1 | 31.9 mP |
| COC(=O)[C@@H]1[C@@H](O)[C@@]2(O)c3c(OC)cc(OC)cc3O[C@@]2(c2ccc(OC)cc2)[C@H]1c1ccccc1 | 4 mP |
| COC(=O)[C@H]1[C@H](c2ccccc2)[C@@]2(c3ccc(Br)cc3)Oc3cc(OC)cc(OC)c3[C@]1(O)[C@H]2O | -7.5 mP |
| COc1ccc([C@@]23Oc4cc(OC)cc(OC)c4[C@]2(O)c2nc[nH]c(=O)c2[C@H]3c2ccccc2)cc1 | 9.1 mP |
| COc1ccc([C@]23Oc4cc(OC)cc(OC)c4[C@@]2(O)[C@@H](O)C[C@@H]3c2ccccc2)cc1 | -1.8 mP |
| COc1ccc([C@@]23Oc4cc(OC)cc(OC)c4[C@]2(O)c2nc(-c4ccc(OCc5ccccc5)cc4)[nH]c(=O)c2[C@H]3c2ccccc2)cc1 | 3.4 mP |
| COc1ccc([C@@]23Oc4cc(OC)cc(OC)c4[C@]2(O)C(=O)C[C@H]3c2ccccc2)cc1 | 31.1 mP |

Further values, each from its own experiment
| SMILES | target | effect on | action | method | concentration | quantity | result |
| --- | --- | --- | --- | --- | --- | --- | --- |
| Cc1nc(C2CCN(C(=O)c3ccc(OC(F)(F)F)cc3N)CC2)c2ncc(N3CCN(C)CC3)cc2n1 | 5-hydroxytryptamine receptor 2A (HTR2A, Homo sapiens, UniProt P28223) | binding | – | radioligand binding | 10 µM | inhibition | 4.68% |
| c1cncc(C2CCCCN2)c1 (racemic) | Calcium/calmodulin-dependent protein kinase type II subunit alpha (CAMK2A, Homo sapiens, UniProt Q9UQM7) | enzyme activity | inhibitor | – | 10 µM | inhibition | 4% |
| CNC(=N)NCCC[C@H](NC(=O)[C@H](CC(C)C)NC(=O)NNC(=O)[C@H](Cc1ccccc1)NC(=O)[C@H](CO)NC(=O)[C@H](CC(N)=O)NC(=O)[C@@H](Cc1cccnc1)NC(=O)[C@H](N)Cc1ccc(O)cc1)C(=O)NCC(N)=O | 5-hydroxytryptamine receptor 1A (HTR1A, Homo sapiens, UniProt P08908) | ligand displacement | – | radioligand | 10 µM | inhibition | 30.9% |
| CO[C@H]1CC[C@H](CNc2ccc(S(=O)(=O)NC(=O)c3ccc(N4CCN(CC5=C(c6ccc(Cl)cc6)CC(C)(C)CC5)CC4)cc3Oc3cnc4[nH]ccc4c3)cc2[N+](=O)[O-])CC1 | Calcium-dependent protein kinase 1 (CDPK1, Plasmodium falciparum, UniProt P62344) | cell-free assay | – | competition with immobilised ligand | 1 µM | remaining binding | 80% |
| CNC(=O)c1cc(C(=O)NC2CC2)cn(Cc2ccccc2)c1=O | D(2) dopamine receptor (DRD2, Homo sapiens, UniProt P14416) | binding | – | radioligand binding | 10 µM | inhibition | -2.98% |

Excerpt of the above (further values, each from its own experiment):
| SMILES | target | effect on | action | method | concentration | quantity | result |
| --- | --- | --- | --- | --- | --- | --- | --- |
| CNC(=N)NCCC[C@H](NC(=O)[C@H](CC(C)C)NC(=O)NNC(=O)[C@H](Cc1ccccc1)NC(=O)[C@H](CO)NC(=O)[C@H](CC(N)=O)NC(=O)[C@@H](Cc1cccnc1)NC(=O)[C@H](N)Cc1ccc(O)cc1)C(=O)NCC(N)=O | 5-hydroxytryptamine receptor 1A (HTR1A, Homo sapiens, UniProt P08908) | ligand displacement | – | radioligand | 10 µM | inhibition | 30.9% |
